Literature values, collected from citations in different studies.
Lines come from different studies, so protocols differ. Several values in a cell are separate wells, animals, samples, runs or records. Numbers after ± are the reported error.
Chain of UniProt Q9NRP7 (whole entry, looked up): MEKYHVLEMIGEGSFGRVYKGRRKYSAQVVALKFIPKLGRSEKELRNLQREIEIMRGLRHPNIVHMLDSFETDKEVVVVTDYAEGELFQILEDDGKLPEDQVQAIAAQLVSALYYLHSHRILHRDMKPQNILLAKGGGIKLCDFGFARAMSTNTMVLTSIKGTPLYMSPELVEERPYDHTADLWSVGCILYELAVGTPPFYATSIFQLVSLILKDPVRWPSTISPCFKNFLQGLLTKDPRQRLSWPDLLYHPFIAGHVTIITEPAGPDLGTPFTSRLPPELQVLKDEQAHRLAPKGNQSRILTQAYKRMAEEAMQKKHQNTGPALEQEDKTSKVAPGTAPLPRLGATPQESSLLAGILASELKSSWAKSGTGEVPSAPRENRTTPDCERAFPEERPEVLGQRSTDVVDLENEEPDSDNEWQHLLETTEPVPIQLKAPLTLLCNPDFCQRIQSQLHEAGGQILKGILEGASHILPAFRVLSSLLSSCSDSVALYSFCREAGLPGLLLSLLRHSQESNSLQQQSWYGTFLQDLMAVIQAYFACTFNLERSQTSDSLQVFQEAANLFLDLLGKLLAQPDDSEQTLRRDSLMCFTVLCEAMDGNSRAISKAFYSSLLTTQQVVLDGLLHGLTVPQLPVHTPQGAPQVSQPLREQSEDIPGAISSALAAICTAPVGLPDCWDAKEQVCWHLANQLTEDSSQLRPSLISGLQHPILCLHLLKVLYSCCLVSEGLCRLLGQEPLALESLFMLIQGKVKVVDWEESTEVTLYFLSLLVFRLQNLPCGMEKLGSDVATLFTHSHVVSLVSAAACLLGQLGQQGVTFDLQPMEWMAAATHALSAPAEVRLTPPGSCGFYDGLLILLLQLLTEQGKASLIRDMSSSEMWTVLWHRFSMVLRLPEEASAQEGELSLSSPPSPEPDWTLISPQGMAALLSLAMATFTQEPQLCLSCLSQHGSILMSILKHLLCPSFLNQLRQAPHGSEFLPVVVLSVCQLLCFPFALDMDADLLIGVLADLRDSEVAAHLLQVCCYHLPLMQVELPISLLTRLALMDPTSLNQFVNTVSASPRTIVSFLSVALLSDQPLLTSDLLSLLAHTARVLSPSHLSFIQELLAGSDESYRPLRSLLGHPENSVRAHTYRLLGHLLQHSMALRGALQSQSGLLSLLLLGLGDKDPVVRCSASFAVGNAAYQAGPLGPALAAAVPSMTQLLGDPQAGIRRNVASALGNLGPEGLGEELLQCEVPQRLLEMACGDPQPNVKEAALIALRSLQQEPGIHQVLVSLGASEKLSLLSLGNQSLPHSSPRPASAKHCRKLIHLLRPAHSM

CC(C)CCN[C@@H]1CCc2cc(O)c(N3CC(=O)NS3(=O)=O)c(F)c2C1
EC50 (PTPN2/PTPN1; cell-based): ~176 nM

CNC(C)C1CCC(N)C(OC2C(N)CC(N)C(OC3OCC(C)(O)C(NC)C3O)C2O)O1 (stereo not shown)
MIC (Escherichia coli; clinical isolate RKI-No_583/16): > 8 µg/mL

O=C(O)c1cc(Cl)ccc1S(=O)(=O)NCCCCN1C(=O)c2cccc3cccc(c23)C1=O
EC50 (human LPA2 receptor; agonist): 0.005 nM and ~0.005 nM

COc1ccccc1Oc1cccc(CN2CCC(NC(=O)C(CCN3CCCC3)c3ccccc3)CC2)c1 (stereo not shown)
EC50 (human CCR8 F88A mutant (TM2); IP accumulation, agonist): 31 nM

Clc1ccc2[nH]ccc2c1
EC50 (NR4A2 (Nurr1); agonist, cell-based): > 5000 nM

C[C@H]1COCCN1c1nc(-c2cnc(N)cc2C(F)F)nc(N2CCOCC2)n1
GI50 (A-375): 469 nM

Oc1cc2c(cc1CN1CCN(c3cccc(Cl)c3)CC1)oc1ccccc12
EC50 (NR4A2 (Nurr1); agonist, cell-based): 110 ± 50 nM

[Ca]
EC50 (KCa3.1 channel; ion current, activator): ~250 nM

COc1ccccc1Oc1cccc(CN2CCC(O)(c3ccccc3C(=O)O)CC2)c1
EC50 (human CCR8 F84A mutant (TM2); IP accumulation, agonist): 7 nM

CC(C)(C)c1cc(C(C)(C)C)c(NC(=O)c2c[nH]c3ccccc3c2=O)cc1O
EC50 (G551D-CFTR; potentiator; Fischer rat thyroid cells): 100 nM

CC(=O)N[C@@H](CSC(=O)[C@]1([C@@H](O)C(C)C)NC(=O)[C@H](C)[C@@H]1O)C(=O)O
EC50 (proteasome): 600 nM

O=C(Nc1cnc2ccccc2c1)c1cc2[nH]ccc2cc1Cl
EC50 (NR4A3 (NOR-1); agonist, cellular): 70 ± 30 nM

CCNS(=O)(=O)c1ccc(OC)cc1C1(O)CCN(Cc2cccc(Oc3ccccc3OC)c2)CC1
EC50 (human CCR8 F88A mutant (TM2); IP accumulation, agonist): 197 nM

CO/N=c1/ccn([C@@H]2O[C@H](COP(=O)(O)OP(=O)(O)OP(=O)(O)OC[C@H]3O[C@@H](n4ccc(=O)[nH]c4=O)[C@H](O)[C@@H]3O)[C@@H](O)[C@H]2O)c(=O)[nH]1
EC50 (P2Y6 receptor; phospholipase C stimulation, agonist): 12 nM

CC1(C)S[C@@H]2[C@H](NC(=O)[C@H](N)c3ccccc3)C(=O)N2[C@H]1C(=O)O
MIC (Escherichia coli; clinical isolate RKI-No_592/16): > 16 µg/mL

CCN(CC)CCCC(C)Nc1ccnc2cc(Cl)ccc12 (stereo not shown)
EC50 (NR4A2 (Nurr1); agonist, cell-based): 47000 ± 5000 nM

CCCCCCCC/C=C\CCCCCCCC(=O)O
EC50 (GPR3; agonist): ~300000 nM

Nc1cc(C(F)(F)F)c(-c2nc(N3CCOCC3)nc(N3CCOCC3)n2)cn1
remaining activity (STK36 (Homo sapiens, UniProt Q9NRP7); enzyme activity; 10 µM; reference: untreated): 86%

CC(C)C[C@@H](C=O)NC(=O)[C@H](CC(C)C)NC(=O)[C@H](CC(C)C)NC(=O)OCc1ccccc1
EC50 (proteasome): 4 nM

For quick reference, copied from above:
CC(C)CCN[C@@H]1CCc2cc(O)c(N3CC(=O)NS3(=O)=O)c(F)c2C1
EC50 (PTPN2/PTPN1; cell-based): ~176 nM

Oc1cc2c(cc1CN1CCN(c3cccc(Cl)c3)CC1)oc1ccccc12
EC50 (NR4A2 (Nurr1); agonist, cell-based): 110 ± 50 nM

CNC(C)C1CCC(N)C(OC2C(N)CC(N)C(OC3OCC(C)(O)C(NC)C3O)C2O)O1 (stereo not shown)
MIC (Escherichia coli; clinical isolate RKI-No_583/16): > 8 µg/mL
